# Experimental data from different studies.
# Protocols differ between the studies behind these lines. ± marks the error that the study gave.
SMILES,assay,test system,conditions,how to read,IC50
O=c1cc(-c2ccc(O)c(O)c2)oc2cc(O[C@@H]3O[C@H](CO)[C@@H](O)[C@H](O)[C@H]3O)cc(O)c12,"ferric reducing antioxidant power, FRAP",,,,46.9 ± 0.83 µg/mL
CCCCn1cc(C(=O)O)c(=O)c2cc(F)c(Nc3cc(OC)c(OC)c(OC)c3)c(N)c21,DPPH radical scavenging,,30 min,,105 ± 8.77 µg/mL
C#CCNC(=O)CNC(=O)CNC(=O)[C@H](Cc1ccc(O)cc1)NC(=O)[C@H](Cc1c[nH]cn1)NC(=O)[C@H](Cc1ccccc1)NC(=O)[C@H](Cc1c[nH]cn1)NC(=O)[C@H](CC(C)C)NC(=O)[C@H](Cc1c[nH]cn1)NC(=O)[C@H](Cc1ccccc1)NC(=O)[C@@H](N)Cc1ccccc1,"translation, luciferase reporter",Escherichia coli S30 extract,,,> 1000 µM
NS(=O)(=O)c1ccc(/N=N/c2ccc(O)c(/C=N/c3cccc(O)c3)c2)cc1,DPPH radical scavenging,,60 min,,14 ± 1.22 µM
CC[C@H](C)[C@H](NC(C)=O)C(=O)N[C@H]1CSSC[C@@H](C(=O)N(C)[C@H](C(N)=O)[C@@H](C)CC)NC(=O)[C@H](CCCNC(=N)N)NC(=O)[C@H](Cc2c[nH]cn2)NC(=O)[C@H](C)NC(=O)CN(C)C(=O)[C@H](Cc2c[nH]c3ccccc23)NC(=O)[C@H](CC(=O)O)NC(=O)[C@H](CCC(N)=O)NC(=O)[C@H](Cc2cn(C)c3ccccc23)NC(=O)[C@H](C(C)C)NC1=O,"classical complement activation, inhibitor, C3b deposition ELISA",normal human plasma,"15 min, plasma 1:80",,0.13 ± 0.04 µM
CC(=O)C1=C(C)NC(=O)NC1c1ccc(F)cc1F (stereo not drawn),"ferric reducing power, FRAP",,,,116 µM
C[n+]1cn([C@@H]2O[C@H](COP(=O)([S-])OP(=O)(O)OP(=O)(O)OC[C@H]3O[C@@H](n4cnc5c(NCCCCCCN)ncnc54)[C@H](O)[C@@H]3O)[C@@H](O)[C@H]2O)c2nc(N)nc(O)c21 (mixture of isomers),cap-dependent translation,rabbit reticulocyte lysate,"1 h preincubation, with: capped luciferase mRNA",,10.8 ± 1.7 µM
NS(=O)(=O)c1ccc(/N=N/c2ccc(O)c(/C=N/CCc3c[nH]c4ccccc34)c2)cc1,DPPH radical scavenging,,60 min,,13.1 ± 0.86 µM
Nc1ccc(-c2nnc(S)o2)cc1,"superoxide scavenging, pyrogallol",,,,50.8 ± 2.2 µM
CC(=O)C1=C(C)NC(=O)NC1c1cccc(C)c1 (stereo not drawn),"ferric reducing power, FRAP",,,,221 µM
CCCCn1cc(C(=O)O)c(=O)c2cc(F)c3c(nnn3-c3ccc(OC)cc3)c21,DPPH radical scavenging,,30 min,,79.4 ± 8.7 µg/mL
CC1OC(OC2C(c3c(O)cc(O)c4c(=O)cc(-c5ccc(O)cc5)oc34)OC(CO)C(O)C2O)C(O)C(O)C1O (stereo not drawn),AGE formation,BSA-fructose model,,,75.39 ± 0.41 µM
CC(=O)C1=C(C)NC(=O)NC1c1ccccc1 (stereo not drawn),nitric oxide scavenging,,,,44.5 µM
CC(C)CCCC(C)C1CCC2C3CC=C4CC(OC(=O)CCC(=O)NCCCCCCNC(=O)O[C@H]5[C@@H](O)[C@H](n6cnc7c(=O)[nH]c(N)nc76)O[C@@H]5COP(=O)(O)OP(=O)([O-])OP(=O)(O)OC[C@H]5O[C@@H](n6c[n+](C)c7c(O)nc(N)nc76)[C@H](O)[C@@H]5O)CCC4(C)C3CCC12C (stereo partly drawn),cap-dependent translation,rabbit reticulocyte lysate,"1 h preincubation, with: capped luciferase mRNA",,26.1 ± 5 µM
O=[N+]([O-])c1ccc(Cl)c(-c2nnc(S)o2)c1,nitric oxide scavenging,,,,47.7 ± 1.1 µM
CC(=O)c1cnc(N)nc1N1CC[C@H]1c1nn2ccc(Cl)c2c(=O)n1-c1ccccc1,"Th17 differentiation, measured: IL-17A",rheumatoid arthritis patient whole blood,,,0.088 µM
CC(=O)C1=C(C)NC(=O)NC1c1ccc(Br)cc1 (stereo not drawn),nitric oxide scavenging,,,,112 µM
CCCCCCCCCc1nc2cc(Cl)ccc2c(=O)n1CCCN,haemolysis,rabbit erythrocytes,60 min,baseline: Triton X-100,173 µM
O=C(N[C@@H](Cc1ccc(OCCCCC2CCNCC2)cc1)C(=O)O)c1nc2ccccc2o1,"clot retraction, inhibitor",human platelet-rich plasma,with: thrombin,,93.5 ± 37.5 µM
CC(=O)[O-].[Cu+2].[O-]c1ccc(Br)cc1C=NCCN1CCOCC1,hydroxyl radical scavenging,,,,240 µM
CC[C@H]1OC(=O)[C@H](C)C(=O)[C@H](C)[C@@H](O[C@@H]2O[C@H](C)C[C@H](N(C)C)[C@H]2O)[C@](C)(OC)C[C@@H](C)C2=NCCN3C(=O)O[C@@]1(C)[C@H]3[C@H]2C,"translation, luciferase reporter",rabbit reticulocyte lysate,,,> 250 µM
Sc1nnc(-c2cc(Cl)ccc2Cl)o1,H2O2 scavenging,,,,107 ± 1.1 µM
C#CCNC(=O)CNC(=O)CNC(=O)CNC(=O)[C@@H]1CCCN1C(=O)[C@H](CCCCN)NC(=O)[C@H](CCCCN)NC(=O)[C@H](CCCCN)NC(=O)[C@H](CCCNC(=N)N)NC(=O)[C@H](CCCCN)NC(=O)[C@@H](NC(=O)CNC(=O)CN)C(C)C,"translation, luciferase reporter",rabbit reticulocyte lysate,,,> 250 µM
CCCCSc1nnc(-c2ccccc2Cl)o1,"superoxide scavenging, pyrogallol",,,,135 ± 4.4 µM
CC(C)CCCC(C)C1CCC2C3CC=C4CC(OC(=O)CCC(=O)NCCCCCCNc5ncnc6c5ncn6[C@@H]5O[C@H](COP(=O)(O)OP(=O)([O-])OP(=O)(O)OC[C@H]6O[C@@H](n7c[n+](C)c8c(O)nc(N)nc87)[C@H](O)[C@@H]6O)[C@@H](O)[C@H]5O)CCC4(C)C3CCC12C (stereo partly drawn),cap-dependent translation,rabbit reticulocyte lysate,"1 h preincubation, with: capped luciferase mRNA",,12.6 ± 2.1 µM
CC(=O)C1=C(C)NC(=O)NC1c1ccc([N+](=O)[O-])cc1 (stereo not drawn),nitric oxide scavenging,,,,265 µM
CCCCCCCCCCCCCCCCCCCCCCCC(=O)OCC(O)CO (stereo not drawn),DPPH radical scavenging,,30 min,,875 ± 462 µg/mL
CCCCn1cc(C(=O)O)c(=O)c2cc(F)c(Nc3cccc(OC)c3)c([N+](=O)[O-])c21,DPPH radical scavenging,,30 min,,1750 ± 174 µg/mL
CCCCSc1nnc(-c2ccc(N)cc2)o1,"superoxide scavenging, pyrogallol",,,,41 ± 1.9 µM
CC[C@H](C)[C@H](NC(C)=O)C(=O)N[C@H]1CSSC[C@@H](C(=O)N[C@@H](CC(C)C)C(N)=O)NC(=O)[C@H](CCCNC(=N)N)NC(=O)[C@H](Cc2c[nH]cn2)NC(=O)[C@H](C)NC(=O)CN(C)C(=O)[C@H](Cc2c[nH]c3ccccc23)NC(=O)[C@H](CC(=O)O)NC(=O)[C@H](CCC(N)=O)NC(=O)[C@H](Cc2cn(C)c3ccccc23)NC(=O)[C@H](C(C)C)NC1=O,"complement activation, ELISA, measured: C3 fragment deposition",human serum,classical pathway,,0.108 µM
C#CCCCC(=O)NCC(=O)NCC(=O)NCC(=O)N1CCC[C@H]1C(=O)N[C@@H](CCCCN)C(=O)N[C@@H](CCCCN)C(=O)N[C@@H](CCCCN)C(=O)N[C@@H](CCCNC(=N)N)C(=O)N[C@@H](CCCCN)C(=O)N[C@H](C(=O)NCC(=O)NCC(N)=O)C(C)C,"translation, luciferase reporter",rabbit reticulocyte lysate,,,> 250 µM
CCCCSc1nnc(-c2ccc(C(C)(C)C)cc2)o1,"superoxide scavenging, pyrogallol",,,,108 ± 3.3 µM
CCCCCCCCCCCCCCCCCCCCCCCCCCCCCCOC(=O)/C=C/c1ccc(O)cc1,DPPH radical scavenging,,30 min,,89.1 ± 24.9 µg/mL
COc1ccc(C2NC(=O)NC(C)=C2C(C)=O)cc1 (stereo not drawn),"ferric reducing power, FRAP",,,,30.7 µM
CCCCSc1nnc(-c2cc(Cl)ccc2Cl)o1,nitric oxide scavenging,,,,89.9 ± 1.3 µM
CC(=O)C1=C(C)NC(=O)NC1c1ccc(F)cc1 (stereo not drawn),nitric oxide scavenging,,,,233 µM
CCCC[C@H](NC(=O)[C@@H]1CSSC[C@H](NC(=O)[C@@H](NC(C)=O)[C@@H](C)CC)C(=O)N[C@@H](C(C)C)C(=O)N[C@@H](Cc2cn(C)c3ccccc23)C(=O)N[C@@H](CCC(N)=O)C(=O)N[C@@H](CC(=O)O)C(=O)N[C@@H](Cc2c[nH]c3ccccc23)C(=O)N(C)CC(=O)N[C@@H](C)C(=O)N[C@@H](Cc2c[nH]cn2)C(=O)N[C@@H](CCCNC(=N)N)C(=O)N1)C(N)=O,"complement activation, ELISA, measured: C3 fragment deposition",human serum,classical pathway,,0.109 µM
CC(=O)C1=C(C)NC(=O)NC1c1cccc(Br)c1 (stereo not drawn),"ferric reducing power, FRAP",,,,107 µM
Sc1nnc(-c2ccccc2Cl)o1,"superoxide scavenging, pyrogallol",,,,142 ± 1.1 µM
